Published values gathered from unrelated publications.
Every numbered part comes from another study and shows a few of its results, in no order. Substitutions count along the parent as printed.

Study 1 — method: universal PBM; molecule type: double-stranded DNA, one strand shown; matrix: in vitro; concentration: 600 nM; direction: higher = stronger binding; measurement: E-score
Target: Sal-like protein 4, full length isoform A (SALL4, Homo sapiens, UniProt Q9UJQ4, residues 1-1053)
UniProt Q9UJQ4, sequence (whole entry, looked up): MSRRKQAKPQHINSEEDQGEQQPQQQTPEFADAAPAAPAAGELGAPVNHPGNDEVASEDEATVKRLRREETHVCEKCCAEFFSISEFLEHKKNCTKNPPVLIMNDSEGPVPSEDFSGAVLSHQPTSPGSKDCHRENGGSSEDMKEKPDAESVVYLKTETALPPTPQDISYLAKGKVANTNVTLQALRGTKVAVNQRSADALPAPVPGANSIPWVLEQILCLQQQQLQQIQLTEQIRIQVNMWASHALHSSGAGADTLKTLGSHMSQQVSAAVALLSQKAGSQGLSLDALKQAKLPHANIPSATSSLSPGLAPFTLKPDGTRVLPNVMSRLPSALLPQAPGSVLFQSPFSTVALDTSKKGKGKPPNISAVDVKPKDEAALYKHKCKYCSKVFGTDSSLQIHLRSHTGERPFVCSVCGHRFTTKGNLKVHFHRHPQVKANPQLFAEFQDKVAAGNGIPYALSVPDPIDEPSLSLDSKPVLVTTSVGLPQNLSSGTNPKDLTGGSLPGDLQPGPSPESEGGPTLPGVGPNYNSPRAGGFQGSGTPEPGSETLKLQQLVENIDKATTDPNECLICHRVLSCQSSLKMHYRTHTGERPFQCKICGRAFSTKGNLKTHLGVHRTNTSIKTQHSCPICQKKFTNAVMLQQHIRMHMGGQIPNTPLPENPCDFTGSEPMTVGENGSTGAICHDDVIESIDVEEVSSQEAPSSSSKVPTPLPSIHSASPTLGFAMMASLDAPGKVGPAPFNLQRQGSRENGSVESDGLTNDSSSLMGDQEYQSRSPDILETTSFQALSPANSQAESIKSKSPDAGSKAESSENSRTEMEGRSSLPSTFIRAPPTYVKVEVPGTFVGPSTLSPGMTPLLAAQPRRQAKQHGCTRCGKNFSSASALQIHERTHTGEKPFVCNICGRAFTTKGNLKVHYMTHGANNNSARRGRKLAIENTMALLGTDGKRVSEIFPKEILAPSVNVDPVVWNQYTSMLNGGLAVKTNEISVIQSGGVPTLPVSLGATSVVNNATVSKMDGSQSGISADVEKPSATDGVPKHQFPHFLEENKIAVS
Setting: 8-mer, flanks averaged, mean of replicates
Oligonucleotide = CGTCAACC; result = -0.157
Oligonucleotide = TGATGCAA; result = 0.102
Oligonucleotide = CGTTGTGA; result = 0.0154
Oligonucleotide = GCAGACAA; result = -0.0418
Oligonucleotide = CGGTCCGC; result = -0.295
Oligonucleotide = ATTGGTTC; result = 0.0729
Oligonucleotide = CACACGTC; result = -0.00432
Oligonucleotide = CACAGCAG; result = -0.114
Oligonucleotide = AGCACAGG; result = -0.226
Oligonucleotide = AGTAAGCA; result = 0.134
Oligonucleotide = CATGATCA; result = 0.208
Oligonucleotide = CAGGCCGC; result = -0.29
Oligonucleotide = ATAGAACA; result = 0.191
Oligonucleotide = CCGATAGA; result = 0.0146
Oligonucleotide = CATCTCAC; result = -0.053
Oligonucleotide = GACCTTAA; result = 0.0462
Oligonucleotide = AGCCGCCG; result = -0.279
Oligonucleotide = AAGTCGGG; result = -0.0979
Oligonucleotide = TCGAGAGA; result = -0.115
Oligonucleotide = TCAGTTAA; result = 0.15
Oligonucleotide = GGGCCCAA; result = -0.221

Study 2 — method: RNA Bind-n-Seq; molecule type: RNA; matrix: in vitro; concentration: not given; baseline: input RNA pool; direction: higher = stronger binding; measurement: bound/input enrichment
Target: RING finger protein unkempt homolog, zinc fingers 1-6, GST-SBP tag (UNK, Homo sapiens, UniProt Q9C0B0, residues 30-357)
Setting: RNA with constant flanks, human and mouse sites, ends assumed
Shared flanks, not repeated: GGGAGUUCUACAGUCCGACGAUC … CAACAGAGGAUUGAGCAUCA
Residues (chain): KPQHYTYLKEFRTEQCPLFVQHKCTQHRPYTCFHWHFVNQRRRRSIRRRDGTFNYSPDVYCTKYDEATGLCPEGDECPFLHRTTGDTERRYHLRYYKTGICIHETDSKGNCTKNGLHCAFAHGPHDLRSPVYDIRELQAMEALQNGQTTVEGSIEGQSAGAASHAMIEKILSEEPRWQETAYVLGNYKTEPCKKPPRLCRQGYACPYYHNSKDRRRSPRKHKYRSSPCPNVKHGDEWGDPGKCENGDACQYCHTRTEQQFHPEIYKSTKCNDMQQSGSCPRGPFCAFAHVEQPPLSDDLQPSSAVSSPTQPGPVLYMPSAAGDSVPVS
Oligonucleotide = CGACUCUCACUCACCUCCAGCGACUCACCCUGAUUUCCAGUUGCACUGGUUUUUUUUUUUUUUUUAAUAUAAUAAAAACUUAUCUGGCAUCAGCCUCAUACCUAAAGCUCCUGCCUGCAU; result = 0.823 ratio
Oligonucleotide = CAUGACAGCAACACUGAUAUGUUUCAGAUUGGUCGGUCAACUGAAAGUCCUAUUGAUUUUGUAGUAACUGACACCGUUCCUGGAAGUCAGAGUAAUUCCGACACGCAGUCAGUACAAAGC; result = 0.0745 ratio
Oligonucleotide = AAUGGUUUGCACGACUUUGAACAUAUACUAUCCAUGCUGAUGGGACAGGAUCCAAUAUGAAUAUAAAUGAUGGAGGAAGACGACGCUUUGAAGAUAAUGAACAUACAUUACGGAUAUAUC; result = 0.219 ratio
Oligonucleotide = UUCAUUGAUAACUUUGGGGGCAGCACUUUUAACUGUAGUCUACUAACUUCAAAAACAAACAAACAAAACUGAAGAAAAAUAUCUAACUGCUUAACUGCUGCCGAGACCUCCACAGCAACU; result = 0.388 ratio
Oligonucleotide = AGAAAUUGGACCAUCACUCGGCUUAAUGGUGAUUUUGCUCAGCUUAAUUUAAAGAUAAAAUUUCUUGAAGCUGGUAUCUAUGAAGUUCCCAUCAUAAUCACAGAUUCGGGUAAUCCUCCC; result = 0.312 ratio
Oligonucleotide = UAUGGGGACCAAUACAGAGCAACUGAUUUUGUUGUUCCUGGGCCUGGAAAAGUAGAGAUAACCUACACACCAAAAGAUGGAACUCAGAAGGUGACAUACAUGGUACAUGACUUUGAAGAA; result = 0.156 ratio
Oligonucleotide = GAAUCAGAAGUGACUCUGGGCAAGGACGUGGUUAUACUUCCAGAAACAAAGGUGGCUGAGUUUAACAAUGUGACUCCACUUUCAGAAGAAGAGGUAACCUCAGUCAAGGACAUGUCUCCG; result = 0.0993 ratio
Oligonucleotide = GGGUCGCUGGCUCUGCUGCUGCCGCCGGCGAAGGAGGAGGCGUUGCCGGUUUUCUGAGUUUAACCAGUAAUGCCAUUCAGUUGCCAAUCUCAAGCAAAGCAAACAUAAGCCAGUUUUAAU; result = 0.139 ratio
Oligonucleotide = AGACAUCAGAUUAAAUCAAGUUCAAAUAUUCCCUGUGUCCCCAAAGACUUACUGAUGAUGUCUGAAUUUGUUCUUCCAAGAUUCAUUUUUUGUCUUAUUCAGUACUUAAGAGAAGGCUAU; result = 0.216 ratio
Oligonucleotide = UCCCAGCCCCUCAUUAGAUUGUUUUCUUCCCAGAGCCCAGGGUCGUGAUAUAUACAUCUAAAUAGCGUUUUGCAUUAUUUCUAGAUGAGUGCAACUGUCAAAGCAAUAUGGGUUCACUGG; result = 1.08 ratio
Oligonucleotide = AAAAAAAGAAUAAAAAUCAGCCAUUUUCAACAAUUUAUAUUAUUUUUAAAAAUAAAUUUCACUAGUGCAUGGUUUUACAAUGGGAGAGAAUGCAACAGGGUGGUACAAAGACACACCGUG; result = 1.68 ratio

Study 3 — method: DHFR PCA, deep sequencing; matrix: yeast; added: (+)-ABA 710 µM; baseline: wild-type fitted maximum; direction: higher = stronger binding; measurement: relative binding score
Target: ABI1, truncated, D143A, DHFR fusion (Arabidopsis thaliana)
Setting: methotrexate growth selection, single substitutions
Parent: PYL1, truncated, DHFR fusion (Arabidopsis thaliana); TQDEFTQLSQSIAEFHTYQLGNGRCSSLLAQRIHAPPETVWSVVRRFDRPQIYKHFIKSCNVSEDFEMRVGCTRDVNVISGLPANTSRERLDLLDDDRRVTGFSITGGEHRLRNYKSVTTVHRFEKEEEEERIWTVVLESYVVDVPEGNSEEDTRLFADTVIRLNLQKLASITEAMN; partner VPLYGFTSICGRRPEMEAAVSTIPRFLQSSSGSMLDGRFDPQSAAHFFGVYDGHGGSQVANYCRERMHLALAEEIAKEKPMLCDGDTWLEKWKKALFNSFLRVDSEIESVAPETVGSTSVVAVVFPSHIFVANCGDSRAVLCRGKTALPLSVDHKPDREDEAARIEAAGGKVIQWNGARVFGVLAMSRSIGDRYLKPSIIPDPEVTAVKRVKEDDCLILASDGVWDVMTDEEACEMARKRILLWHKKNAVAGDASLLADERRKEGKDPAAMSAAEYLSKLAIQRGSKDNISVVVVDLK
Change = V100L; result = 103%
Change = R132K; result = 117%
Change = L166P; result = 22.9%
Change = V142H; result = 93.8%
Change = E129D; result = 109%
Change = E14S; result = 89.9%
Change = F56D; result = 11.8%
Change = A158V; result = 104%
Change = R90H; result = 93.8%
Change = N114T; result = 67%
Change = R32L; result = 93.3%
Change = P36V; result = 92.2%
Change = V76E; result = -8.17%
Change = S26Q; result = 102%
Change = E174G; result = 92.9%
Change = S150E; result = 87.2%

Study 4 — target: CCNE2, cyclin fold, Cln2 fusion (human); method: yeast growth competition, sequencing; matrix: yeast; setting: strong parent motif; baseline: not given; direction: higher = stronger binding; measurement: normalised enrichment score
Parent: CDKN1A docking peptide (human); SKACRRLFGPVDS; partner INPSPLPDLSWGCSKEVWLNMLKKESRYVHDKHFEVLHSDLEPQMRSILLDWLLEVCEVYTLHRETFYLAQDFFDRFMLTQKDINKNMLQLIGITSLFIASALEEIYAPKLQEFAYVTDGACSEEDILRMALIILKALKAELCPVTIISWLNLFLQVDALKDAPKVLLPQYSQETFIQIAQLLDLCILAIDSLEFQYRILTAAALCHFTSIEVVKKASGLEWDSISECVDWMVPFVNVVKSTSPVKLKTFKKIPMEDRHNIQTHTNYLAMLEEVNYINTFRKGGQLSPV
Change = K2L; result = 2.29
Change = D12N; result = 3.32
Change = D12K; result = 2.64
Change = D12Y; result = 2.68
Change = F8K; result = 0.244
Change = K2N; result = 4.28
Change = A3Q; result = 0.625
Change = R6F; result = 0.962
Change = L7N; result = 0.351
Change = D12E; result = 3.93
Change = K2V; result = 2.52
Change = D12H; result = 2.94
Change = A3I; result = 1.84
Change = P10F; result = 1.95
Change = K2R; result = 3.44

Study 5 — method: protein binding microarray; molecule type: double-stranded DNA, one strand shown; matrix: in vitro; concentration: not given; baseline: not given; direction: higher = stronger binding; measurement: E-score
Target: Histone acetyltransferase KAT6A, both winged helices, GST fusion (KAT6A, Homo sapiens, UniProt Q92794, residues 1-181)
Setting: 8-mer, flanks averaged, mean of 2 arrays, mostly near background
Target sequence (chain): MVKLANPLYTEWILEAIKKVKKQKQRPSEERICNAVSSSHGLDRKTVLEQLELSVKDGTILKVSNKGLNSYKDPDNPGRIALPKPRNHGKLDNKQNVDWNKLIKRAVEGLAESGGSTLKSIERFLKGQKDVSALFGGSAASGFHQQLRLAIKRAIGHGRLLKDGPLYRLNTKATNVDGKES
Oligonucleotide = ACCACCTG; result = -0.187
Oligonucleotide = CAATTCCA; result = -0.191
Oligonucleotide = AAAAATCT; result = -0.0552
Oligonucleotide = AATTTACT; result = -0.0329
Oligonucleotide = CACCGGAC; result = 0.118
Oligonucleotide = GCATGATA; result = -0.0547
Oligonucleotide = GCAAACCA; result = -0.151
Oligonucleotide = ATATAGGA; result = -0.103
Oligonucleotide = ACCCAAGC; result = -0.0555
Oligonucleotide = CTTAACCA; result = -0.199
Oligonucleotide = AACGGTGC; result = 0.188
Oligonucleotide = ATTGTGCA; result = -0.0671
Oligonucleotide = CGGTGTTC; result = 0.234
Oligonucleotide = AGTGCACA; result = -0.137
Oligonucleotide = CCAAATAG; result = -0.185
Oligonucleotide = AGAATTGA; result = -0.132

Study 6 — method: RNAcompete; molecule type: RNA; matrix: in vitro; concentration: 20 nM; setting: 7-mer, probes averaged, single round; baseline: mean of 7-mers; direction: higher = stronger binding; measurement: 7-mer Z-score
Target: PABPC1L2, full length, GST fusion (mouse, UniProt A0ABA7IW68)
Residues (chain): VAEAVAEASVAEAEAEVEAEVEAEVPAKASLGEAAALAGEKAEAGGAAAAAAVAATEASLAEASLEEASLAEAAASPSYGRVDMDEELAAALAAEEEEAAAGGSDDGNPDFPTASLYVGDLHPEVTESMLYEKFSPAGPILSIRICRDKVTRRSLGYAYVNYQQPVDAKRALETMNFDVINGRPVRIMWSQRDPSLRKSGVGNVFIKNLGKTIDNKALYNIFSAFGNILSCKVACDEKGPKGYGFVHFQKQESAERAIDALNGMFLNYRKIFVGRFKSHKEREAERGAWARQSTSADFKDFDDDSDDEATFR
Oligonucleotide = UGCCAAA; result = 0.818
Oligonucleotide = GCGCGGC; result = -0.0844
Oligonucleotide = CCUCCAG; result = -0.342
Oligonucleotide = CCGGGCA; result = 0.122
Oligonucleotide = UCGACGG; result = -0.0808
Oligonucleotide = CUCUCCU; result = -0.383
Oligonucleotide = ACGCUAG; result = -0.264
Oligonucleotide = UAGACCG; result = -0.195
Oligonucleotide = GCCCACA; result = -0.429
Oligonucleotide = GUAGGCA; result = 0.14
Oligonucleotide = AUUUGAC; result = -0.258
Oligonucleotide = CCAGUUC; result = -0.364
Oligonucleotide = GGGUGAA; result = 0.227
Oligonucleotide = UCAGCGC; result = -0.344
